Results from different studies.
Every numbered part comes from another study and shows a few of its results, in no order. Substitutions count along the parent as printed.

Block 1
Target: CCNB3, cyclin fold, Cln2 fusion (human)
Method: yeast growth competition, sequencing
Sample: yeast
Setting: weak parent motif
Relative to: not given
Reading: higher = stronger binding
Starting sequence: REPIN1 docking peptide (human); QSFRGWVALVLHL; partner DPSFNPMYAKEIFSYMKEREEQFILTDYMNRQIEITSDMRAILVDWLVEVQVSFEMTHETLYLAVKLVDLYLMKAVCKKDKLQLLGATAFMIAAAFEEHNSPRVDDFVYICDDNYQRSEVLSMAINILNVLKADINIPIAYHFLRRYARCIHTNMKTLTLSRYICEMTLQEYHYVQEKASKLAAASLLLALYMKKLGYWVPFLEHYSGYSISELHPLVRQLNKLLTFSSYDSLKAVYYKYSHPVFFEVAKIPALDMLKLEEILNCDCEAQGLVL
`G5A` — result for “normalised enrichment score”: 0.754.
For `Q1A`, “normalised enrichment score” read 0.396.
`F3A` — result for “normalised enrichment score”: 0.535.
`L9A` — result for “normalised enrichment score”: -0.0886.
Under “normalised enrichment score”, `R4A` is recorded as -0.0234.
`V7A`: “normalised enrichment score” 0.989.

Block 2
Target: PABPC1L2, full length, GST fusion (mouse, UniProt A0ABA7IW68)
Method: RNAcompete
Molecule type: RNA
Sample: in vitro
Tested at: 20 nM
Setting: 7-mer, probes averaged, single round
Relative to: mean of 7-mers
Reading: higher = stronger binding
Construct (chain): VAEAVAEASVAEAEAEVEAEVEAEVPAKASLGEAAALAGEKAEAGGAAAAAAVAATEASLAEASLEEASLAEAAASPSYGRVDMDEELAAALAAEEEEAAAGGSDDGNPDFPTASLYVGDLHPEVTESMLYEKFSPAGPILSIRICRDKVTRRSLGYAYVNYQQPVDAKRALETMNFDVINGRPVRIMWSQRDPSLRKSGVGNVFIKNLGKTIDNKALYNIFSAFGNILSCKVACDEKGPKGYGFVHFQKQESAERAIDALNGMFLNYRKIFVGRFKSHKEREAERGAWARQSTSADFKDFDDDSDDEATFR
For `CUUAGUU`, the 7-mer Z-score was -0.229.
For `ACGAAGG`, the 7-mer Z-score was 0.124.
`GCCGUCA` gave a 7-mer Z-score of -0.224.
The 7-mer Z-score of `GUUAUAC` is reported as -0.175.
The 7-mer Z-score of `CAGCUGC` is reported as -0.304.
`CGUAUAC` has a 7-mer Z-score of -0.206.
For `UCCCUCU`, the 7-mer Z-score was -0.32.
With `CCGCGAC` the 7-mer Z-score was -0.15.
`AACUGUA` has a 7-mer Z-score of 0.153.
`GUAUACU` has a 7-mer Z-score of -0.175.
`UAGAUAG` has a 7-mer Z-score of -0.128.
For `UUUAAAA`, the 7-mer Z-score was 1.48.
With `CGCAAAU` the 7-mer Z-score was -0.0047.
`UGUACCC` gave a 7-mer Z-score of -0.325.
For `AUACCGC`, the 7-mer Z-score was -0.315.
For `UCCAUGC`, the 7-mer Z-score was -0.289.
The 7-mer Z-score of `GCGUAAA` is reported as 0.807.
The 7-mer Z-score of `CGACAGG` is reported as -0.0935.
`AAACCUC` gave a 7-mer Z-score of 0.262.
`UGGGCGU` has a 7-mer Z-score of 0.108.
For `UAAUUUA`, the 7-mer Z-score was 0.119.
`UUGGUAC` gave a 7-mer Z-score of -0.128.

Block 3
Target: Prothrombin, mature alpha-thrombin (F2, Homo sapiens, UniProt P00734)
Method: aptamer microarray, sandwich
Molecule type: DNA with 2'F-ANA
Sample: in vitro
Tested at: 200 nM
Setting: whole 15-mer aptamer, many near background
Added: Cy3 exosite-II aptamer, 400 nM
Reading: higher = stronger binding
Oligonucleotide: GGTTGGTGTGGTTGG
`2'F-ANA at 2 4 5 6 8 9 10 11 12 14 15` — result for “mean fluorescence intensity”: 50.1 a.u.
`2'F-ANA at 4 5 6 7 8 10 11 12 13 15`: “mean fluorescence intensity” 96.3 a.u.
For `2'F-ANA at 1 12 14 15`, “mean fluorescence intensity” read 75.7 a.u.
`2'F-ANA at 1 2 5 8 10 12 13 14 15` — result for “mean fluorescence intensity”: 91 a.u.
`2'F-ANA at 1 2 4 5 7 8 13 14 15` — result for “mean fluorescence intensity”: 89 a.u.
`2'F-ANA at 1 3 5 6 8 9 13 15` — result for “mean fluorescence intensity”: 58.2 a.u.
`2'F-ANA at 3 4 5 6 8 9 15` — result for “mean fluorescence intensity”: 114 a.u.
Under “mean fluorescence intensity”, `2'F-ANA at 1 3 6 7 10 14 15` is recorded as 56.7 a.u.
`2'F-ANA at 1 2 5 6 7 9 10 11 12 13 15` — result for “mean fluorescence intensity”: 49.5 a.u.
`2'F-ANA at 1 6 10 12 13 14`: “mean fluorescence intensity” 50.3 a.u.
`2'F-ANA at 6 9 11 15` — result for “mean fluorescence intensity”: 375 a.u.
For `2'F-ANA at 1 2 7 8 14`, “mean fluorescence intensity” read 67.3 a.u.
`2'F-ANA at 1 3 4 5 6 7 8 9 15` — result for “mean fluorescence intensity”: 65 a.u.
Under “mean fluorescence intensity”, `2'F-ANA at 2 3 5 6 7 9 10 12 13 14` is recorded as 52.9 a.u.
Under “mean fluorescence intensity”, `2'F-ANA at 1 2 5 8 9 10 14 15` is recorded as 52.5 a.u.
Under “mean fluorescence intensity”, `2'F-ANA at 2 3 4 6 10 11 12 14 15` is recorded as 161 a.u.
Under “mean fluorescence intensity”, `2'F-ANA at 1 2 3 6 7 8 11 13 14` is recorded as 66.9 a.u.
`2'F-ANA at 1 6`: “mean fluorescence intensity” 164 a.u.
Under “mean fluorescence intensity”, `2'F-ANA at 2 5 6 7 9 12 13 14 15` is recorded as 47.1 a.u.
For `2'F-ANA at 2 4 5 6 7 11 12 14`, “mean fluorescence intensity” read 85.7 a.u.
`2'F-ANA at 1 2 4 5 7 8 9 11 14` — result for “mean fluorescence intensity”: 43.9 a.u.
`2'F-ANA at 4 6 8 9 13 14`: “mean fluorescence intensity” 161 a.u.

Block 4
Target: RNA binding protein fox-1 homolog 2, RRM domain, GST-SBP tag (RBFOX2, Homo sapiens, UniProt O43251-10, residues 100-194)
Method: RNA Bind-n-Seq
Molecule type: RNA
Sample: in vitro
Tested at: 365 nM
Setting: natural RNA segment, single round, ends assumed
Relative to: no-protein control
Reading: higher = stronger binding
Constant ends, left off below: GGGAGUUCUACAGUCCGACGAUC … UGGAAUUCUCGGGUGCCAA
Construct (chain): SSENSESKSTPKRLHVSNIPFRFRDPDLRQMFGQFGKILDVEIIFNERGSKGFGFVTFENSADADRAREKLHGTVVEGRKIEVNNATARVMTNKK
`CAACCAAGAGGUGAGGACUGGAUCUCACGGAAGUGGCAUGGCCAUGACCCUGAGCUUCUGCCAGCCUGGAGGACCCGUGCUAAGUGGACCACGCCUUCCCGCUCGGCGGC` — result for “RBNS enrichment (R)”: 0.528.
Under “RBNS enrichment (R)”, `CGGAGUGCAGUGGUGCAAUCUCAGCUCACUGCAACCUCCACCUCCUGGGUUCAAGCAAUUCUCCUGCUUCAGCCUCCCGAGUAGCUGGGAUUACAGGUGUGUACCACCAC` is recorded as 0.208.
`UGUCACUUUUUUAAGGCUUUCUGUCCAGACUUCAACACUGGUUUCUUUUCAGAGUUUCGAAGGAUUAAUGACUUCCUCAGCGCCCUUGCUGGCGGGCUGAGGGUGACAGU` — result for “RBNS enrichment (R)”: 0.365.
Under “RBNS enrichment (R)”, `ACCUGGAAGUUGCCCAUUUAACUAAUUAUUCUGUCCUGUGACUGUCAUCCUUCCAGUUGUUGUGUAGCGUAUGGAACCAUGUCAUCCUUUUACUAGGCAAAUACACAUAC` is recorded as 0.673.
`GAAACAGUUCGACUUCGGUUACUGCCUUCUCCCUUGAAAUCCUUGCUGCGUGCCCACCAGGAUUUCCUGUGAGGGCCCAGGAAUGAGCAAGGCAUGGUCUGCCACCAGCU` — result for “RBNS enrichment (R)”: 0.903.
`GUUGAUUUCUCUACAGAGCUUAGCUUGUGUAGUUAUUUCUCUUUUACUGUUGCUUUGGUGUGUCUUGAAGUUUGAUUGAUUAUUUUUGGUCAUUGAGUUCUUAGUGUAGU`: “RBNS enrichment (R)” 1.42.
`UAACUAAAUCAUGACCAUCUGAUGCAAGAUGCAGUCAUAUCCAUGGUACUGAAAAUAACAUGAUGCUUGCUUGGAGUAUGAUGCUAUGUCACCCAAGUCACAGGAUGAUU` — result for “RBNS enrichment (R)”: 0.426.
`UAAGCUAUGAGUUGAACUGUUUCUGUCAAGUAUGUCUUGUGUCCACACAUGGUUUGGAUGCUUCUAUAUUGGCCCUGCCCAGGUAGAAAGGGUAAGAAGAACAUGUAGAA`: “RBNS enrichment (R)” 0.994.

Single results of other studies
With `PhoQ, residues 284 288 289 292 302 303 SSTMSV` the fold induction was 17.2 (PhoP, residues 12 14 15 18 19 LHATL (Escherichia coli, UniProt P23836); Sort-seq, item: YFP reporter; E. coli; PhoQ-PhoP variant library, added: 10 µM Mg2+; relative to: high Mg2+ state, higher = stronger signaling).

Repeated from above (block 3):
For `2'F-ANA at 2 4 5 6 7 11 12 14`, “mean fluorescence intensity” read 85.7 a.u.
`2'F-ANA at 1 2 4 5 7 8 9 11 14` — result for “mean fluorescence intensity”: 43.9 a.u.
`2'F-ANA at 4 6 8 9 13 14`: “mean fluorescence intensity” 161 a.u.
